Measurements of several laboratories.
Every numbered part comes from another study and shows a few of its results, in no order.

Study 1
Target: Interferon regulatory factor 5, full length, phosphomimetic (IRF5, Homo sapiens, UniProt Q13568-2, residues 1-514, K96S/S451D/S453D/S456D/S462D)
Technique: protein-binding microarray
Form: double-stranded DNA, one strand shown
Sample: in vitro
Tested at: 250 nM
Notes: 60-bp whole probe
Added: salmon DNA 0.4 mg/ml
Baseline: random background probes
Reading: higher = stronger binding
Shared flanks, not repeated: GCCTAGCAC … GTGCTAGGTCTTGATTCGCTTGACGCTGCTG
Sequence | log fluorescence [z-score]
TTAGGTTTCGGTTTCGGCTA | 11.3
GACGATATCAGTATCGATAC | 8.18
TTAGATCTCAGTTTCGAATA | 5.22
GACGGGTTCCTTCTCCTGAC | -0.0886
TCATTTATCCCTGACAGACT | 0.567

Study 2
Target: Fragile X messenger ribonucleoprotein 1, C-terminal low-complexity region (Fmr1, Mus musculus, UniProt P35922)
Technique: RNA Bind-n-Seq
Form: RNA
Sample: in vitro
Tested at: 200 nM
Notes: whole 134-nt RNA, ends assumed
Added: 150 mM KCl
Baseline: input library
Reading: higher = stronger binding
Sequence | log2 enrichment
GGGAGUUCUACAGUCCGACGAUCAAGUCCUGUGCUACACAUCGUAUGUACCGAAUCGGUUUGGUUUUUUUGGUUUUUGGAAAGUAUUAUGUUACGCCGUUCGGAUCUGCACUUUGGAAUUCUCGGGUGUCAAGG | -0.713
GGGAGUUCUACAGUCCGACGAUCUUCCUCAAGUCCUGUGCUACACAUCGUAUGUACCGAAUCGGGAGGAGGAGGAAAGUAUUAUGUUACGCCGUUCGGAUCUGCACUUCCAGCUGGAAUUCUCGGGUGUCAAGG | -0.629
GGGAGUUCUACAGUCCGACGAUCAAGUCCUGUGCUACACAUCGUAUGUACCGAAUCGGAAAAAAAGGAGGAAAAAAAGGAAAGUAUUAUGUUACGCCGUUCGGAUCUGCACUUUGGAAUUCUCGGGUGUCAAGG | -0.702
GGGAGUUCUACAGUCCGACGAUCCUCAAGUCCUGUGCUACACAUCGUAUGUACCGAAUCGGGUUGGGUUGGGUUGGGAAAGUAUUAUGUUACGCCGUUCGGAUCUGCACUUCCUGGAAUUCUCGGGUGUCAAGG | 1.26
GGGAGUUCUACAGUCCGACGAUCUGGCCCUGGUGGCAUGCGGGGAGGAAGAGGUGGCCUCAUGGACCGUGGUGGUCCCGGUGGAAUGUUCAGAGGUGGCCGUGGUGGAGACAGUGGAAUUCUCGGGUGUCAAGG | 0.103
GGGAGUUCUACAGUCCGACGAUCAGUCCUGUGCUACACAUCGUAUGUACCGAAUCAAACCCCCAAACCCCCAAACCCAAAAAAGUAUUAUGUUACGCCGUUCGGAUCUGCACUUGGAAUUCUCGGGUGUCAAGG | -0.302

Study 3
Target: Centromere-binding protein 1, full length, His-tagged (CBF1, Saccharomyces cerevisiae, UniProt P17106, residues 1-351)
Chain of UniProt P17106 (whole entry, looked up): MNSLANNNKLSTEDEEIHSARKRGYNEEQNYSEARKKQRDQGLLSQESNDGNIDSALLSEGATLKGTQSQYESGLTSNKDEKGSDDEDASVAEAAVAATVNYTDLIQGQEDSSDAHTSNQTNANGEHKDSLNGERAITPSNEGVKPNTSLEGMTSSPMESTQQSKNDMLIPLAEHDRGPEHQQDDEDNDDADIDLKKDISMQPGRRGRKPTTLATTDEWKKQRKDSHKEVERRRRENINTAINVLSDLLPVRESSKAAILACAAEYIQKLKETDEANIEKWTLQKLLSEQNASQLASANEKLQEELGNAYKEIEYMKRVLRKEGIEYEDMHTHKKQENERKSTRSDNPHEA
Technique: competition protein-binding microarray
Form: double-stranded DNA, one strand shown
Sample: in vitro
Tested at: 2 µM
Notes: whole 60-bp probe, lowest competitor level
Added: Pho4 competitor, 0.05 µM
Reading: higher = stronger binding
Sequence | fluorescence intensity
CTAACGAAGGTTTGGTTAGTGGGTGACAAGCCAAGTGTCTTGATTCGCTTGACGCTGCTG | 80.3 a.u.
GAAGGAGCGGGGCGTCATGCTAACCAGGAATGGAAGGTCTTGATTCGCTTGACGCTGCTG | 64.2 a.u.
CTTTCCCGATCTTGCCCGGTGGGTGTAGCACATTTGGTCTTGATTCGCTTGACGCTGCTG | 77.8 a.u.
GACGTACGCGCCTTCCACGTGTAACTCTTGTCTCTCGTCTTGATTCGCTTGACGCTGCTG | 452 a.u.

Single results of other studies
Substance | target | test | test system | conditions | how to read | measurement | result
PhoQ, residues 284 288 289 292 302 303 ALSMDL | PhoP, residues 12 14 15 18 19 AGCRL (Escherichia coli, UniProt P23836) | Sort-seq, refers to: YFP reporter | E. coli | PhoQ-PhoP variant library, added: 10 µM Mg2+ | baseline: high Mg2+ state, higher = stronger signaling | fold induction | 4.54

For quick reference, copied from above (study 1):
Sequence | log fluorescence [z-score]
GACGATATCAGTATCGATAC | 8.18
TTAGGTTTCGGTTTCGGCTA | 11.3
